Experimental data of several laboratories.
Protocols differ between the studies behind these lines. Several values in a cell are separate wells, animals, samples, runs or records.

Structure (SMILES)	organism	test	system	conditions	IC50
Fc1ccc(Nc2c(-c3ccccn3)nc3c(F)cccn23)cc1	Leishmania infantum	parasite growth		intracellular, amastigote	24.5 µM and > 64 µM
CC(C)[C@H](N)C(=O)N[C@H](Cc1ccccc1)C(=O)N[C@@H](Cc1ccccc1)C(=O)N[C@H](CCCN)C(=O)N[C@H](C(=O)N[C@H](CCCNC(=N)N)C(=O)O)[C@@H](C)O	Balamuthia mandrillaris	parasite growth, ATP luminescence		72 h	> 20 µM
CN(C)[C@@H]1C(O)=C(C(N)=O)C(=O)[C@@]2(O)C(O)=C3C(=O)c4c(O)c(NC(=O)CN5CCCC5)cc(F)c4C[C@H]3C[C@@H]12	Mycobacteroides abscessus	microbial growth, resazurin	ATCC19977		< 1 µg/mL
CC(C)[C@@H]1NC(=O)[C@@H](Cc2c[nH]cn2)NC(=O)[C@H]([C@@H](C)O)NC(=O)[C@@H](CCCN)NC(=O)[C@H](Cc2ccccc2)NC(=O)[C@@H](Cc2ccccc2)NC1=O	Balamuthia mandrillaris	parasite growth, ATP luminescence			12.1 µM
Cc1ccc(C(=O)Nc2ccc(S(=O)(=O)O)c3cc(S(=O)(=O)O)cc(S(=O)(=O)O)c23)cc1NC(=O)c1cccc(NC(=O)Nc2cccc(C(=O)Nc3cc(C(=O)Nc4ccc(S(=O)(=O)O)c5cc(S(=O)(=O)O)cc(S(=O)(=O)O)c45)ccc3C)c2)c1	Trypanosoma brucei	parasite growth, resazurin	RHODESIENSE, human		~0.05 µM
c1ccc(-c2nc3n(c2-c2ccc4cccnc4c2)CCC3)nc1	Leishmania infantum	parasite growth		intracellular, amastigote	6.96 µM and 2.38 µM
CN(C)c1cc(NC(=O)Cc2ncccn2)c(O)c2c1C[C@H]1C[C@H]3[C@H](N(C)C)C(O)=C(C(N)=O)C(=O)[C@@]3(O)C(O)=C1C2=O	Mycobacteroides abscessus	microbial growth, resazurin	ATCC19977		0.91 µg/mL
Cc1ccn2cc(-c3ccccn3)nc2c1	Leishmania infantum	parasite growth		intracellular, amastigote	20.2 µM and 10.1 µM
C[C@@H]1NC(=O)[C@@H](CCCNC(=N)N)NC(=O)[C@H]([C@@H](C)O)NC(=O)[C@@H](CCCN)NC(=O)[C@H](Cc2ccccc2)NC(=O)[C@@H](Cc2ccccc2)NC1=O	Balamuthia mandrillaris	parasite growth, ATP luminescence		72 h	> 20 µM
Nc1nc2c(ncn2COCCO)c(=O)[nH]1	Human alphaherpesvirus 2	viral replication, inhibitor, qPCR	HeLa		0.12 µM
CN(C)C(=O)c1ccc(-c2c(-c3ccccn3)nc3n2CCC3)cc1	Leishmania infantum	parasite growth		intracellular, amastigote	29 µM and > 64 µM
CN(C)c1cc(NC(=O)c2ccccn2)c(O)c2c1C[C@H]1C[C@H]3[C@H](N(C)C)C(O)=C(C(N)=O)C(=O)[C@@]3(O)C(O)=C1C2=O	Mycobacteroides abscessus	microbial growth, resazurin	ATCC19977		> 128 µg/mL

Repeated from above:
Structure (SMILES)	organism	test	system	conditions	IC50
CN(C)c1cc(NC(=O)c2ccccn2)c(O)c2c1C[C@H]1C[C@H]3[C@H](N(C)C)C(O)=C(C(N)=O)C(=O)[C@@]3(O)C(O)=C1C2=O	Mycobacteroides abscessus	microbial growth, resazurin	ATCC19977		> 128 µg/mL
Cc1ccc(C(=O)Nc2ccc(S(=O)(=O)O)c3cc(S(=O)(=O)O)cc(S(=O)(=O)O)c23)cc1NC(=O)c1cccc(NC(=O)Nc2cccc(C(=O)Nc3cc(C(=O)Nc4ccc(S(=O)(=O)O)c5cc(S(=O)(=O)O)cc(S(=O)(=O)O)c45)ccc3C)c2)c1	Trypanosoma brucei	parasite growth, resazurin	RHODESIENSE, human		~0.05 µM
